Assay results collected from several papers.
Compare with care: the assays were run in different laboratories.
Organism: Staphylococcus aureus

| Compound | assay | test system | setting | MIC |
| --- | --- | --- | --- | --- |
| CCC(CC)c1cc(CCN2CCCN(S(=O)(=O)c3ccc(F)cc3)CC2)nc(-c2ccccn2)n1 | microbial growth, broth dilution | ATCC29213 |  | > 16 µg/mL |
| CCCCCCCC[N+](C)(C)CCCCCCCCCCOc1cc(OCCCCCCCCCC[N+](C)(C)CCCCCCCC)cc(OCCCCCCCCCC[N+](C)(C)CCCCCCCC)c1.[Br-].[Br-].[Br-] |  | CA-MRSA USA300-0114 |  | 2 µM |
| CC[C@H](C)[C@H](NC(=O)[C@H](CCN)NC(=O)CCCCCCCCCCCNC(=O)CCCCCOC(=O)c1cn(C2CC2)c2cc(N3CCNCC3)c(F)cc2c1=O)C(=O)N[C@@H](CCN)C(=O)N[C@H](Cc1ccccc1)C(=O)N[C@@H](CC(C)C)C(=O)N[C@@H](CCN)C(=O)N[C@@H](C(=O)N[C@@H](CC(C)C)C(=O)N[C@@H](CO)C(N)=O)C(C)C |  |  |  | 5.04 µg/mL |
| CCCC/C=C/C(=O)N[C@@H](Cc1cc(F)cc(F)c1)C(=O)N[C@@H]1C(=O)N2CCC[C@H]2C(=O)N2CCCC[C@H]2C(=O)N[C@@H](C)C(=O)N2CCC[C@H]2C(=O)O[C@H]1C | microbial growth, broth dilution |  |  | 0.098 µg/mL |
| CCCCCCCCCCCC[N+](C)(C)CCCCCCCCCCOc1cc(OCCCCCCCCCC[N+](C)(C)CCCCCCCCCCCC)cc(OCCCCCCCCCC[N+](C)(C)CCCCCCCCCCCC)c1.[Br-].[Br-].[Br-] |  | CA-MRSA USA300-0114 |  | 16 µM |
| COc1cc(C(=O)O)ccc1NC(=O)c1ccc(NC(=O)c2ccc(NC(=O)[C@H](Cc3c[nH]nn3)NC(=O)c3ccc(NC(=O)/C(C)=C/c4ccc(O)cc4)cc3)cc2)cc1 | broth microdilution | ciprofloxacin-resistant |  | 32 µg/mL |
| CC[C@H]1OC(=O)[C@H](C)[C@@H](OC(=O)Cc2ccc3c(c2)OCO3)[C@H](C)[C@@H](O[C@@H]2O[C@H](C)C[C@H](N(C)C)[C@H]2O)[C@](C)(OC)C[C@@H](C)C(=O)[C@H](C)[C@@H](O)[C@]1(C)O |  | ATCC 43300 MRSA |  | > 64 µg/mL |
| CCCCCCn1cc[n+](CCCCCCOc2cc(OCCCCCC[n+]3ccn(CCCCCC)c3)cc(OCCCCCC[n+]3ccn(CCCCCC)c3)c2)c1.[Br-].[Br-].[Br-] |  | CA-MRSA USA300-0114 |  | 0.5 µM |
| CC[C@H]1OC(=O)[C@H](C)[C@@H](OC(=O)Cc2ccccc2[N+](=O)[O-])[C@H](C)[C@@H](O[C@@H]2O[C@H](C)C[C@H](N(C)C)[C@H]2O)[C@](C)(OC)C[C@@H](C)C(=O)[C@H](C)[C@@H](O)[C@]1(C)O |  | ATCC 43300 MRSA |  | > 64 µg/mL |
| COc1nc(C(=O)Nc2ccc(C(=O)O)c(O)c2OC)ccc1NC(=O)c1ccc(NC(=O)[C@H](Cc2c[nH]nn2)NC(=O)c2ccc(NC(=O)/C(C)=C/c3ccc(O)cc3)cc2)cc1 | broth microdilution | ciprofloxacin-sensitive |  | 1 µg/mL |
| CC[C@H]1OC(=O)[C@H](C)[C@@H](OC(=O)Cc2cccc3ccccc23)[C@H](C)[C@@H](O[C@@H]2O[C@H](C)C[C@H](N(C)C)[C@H]2O)[C@](C)(OC)C[C@@H](C)C(=O)[C@H](C)[C@@H](O)[C@]1(C)O | microbial growth | BAA976 |  | 16 µg/mL |
| CN[C@H](CC(C)C)C(=O)N[C@H]1C(=O)N[C@@H](CC(N)=O)C(=O)N[C@H]2C(=O)N[C@H]3C(=O)N[C@H](C(=O)N[C@H](C(=O)O)c4cc(O)cc(O)c4-c4cc3ccc4O)[C@H](O)c3ccc(c(Cl)c3)Oc3cc2cc(c3O[C@@H]2O[C@H](CO)[C@@H](O)[C@H](O)[C@H]2O[C@H]2C[C@](C)(NCc3ccc(OCc4cn(CC(=O)N[C@H](C(=O)N[C@@H](CCN)C(=O)N[C@H]5CCNC(=O)[C@H]([C@@H](C)O)NC(=O)[C@H](CCN)NC(=O)[C@H](CCN)NC(=O)[C@H](CC(C)C)NC(=O)[C@@H](CC(C)C)NC(=O)[C@H](CCN)NC5=O)[C@@H](C)O)nn4)c(OC)c3)[C@H](O)[C@H](C)O2)Oc2ccc(cc2Cl)[C@H]1O | broth microdilution | MRSA USA300, cation-adjusted Mueller-Hinton broth | 20 to 24 h, 37 °C, 0.002% polysorbate 80 | 0.25 µg/mL |
| CCCCCCCCCCCC(=O)Oc1c(C)c(OC)c2c(/C=C/c3ccccc3)c(CCCCCCCCCC)c(=O)oc2c1C | microbial growth, broth dilution | ATCC25923 |  | 5000 µg/mL |
| CN[C@H](CC(C)C)C(=O)N[C@H]1C(=O)N[C@@H](CC(N)=O)C(=O)N[C@H]2C(=O)N[C@H]3C(=O)N[C@H](C(=O)N[C@H](C(=O)NCC(N)=O)c4cc(O)cc(O)c4-c4cc3ccc4O)[C@H](O)c3ccc(c(Cl)c3)Oc3cc2cc(c3O[C@@H]2O[C@H](CO)[C@@H](O)[C@H](O)[C@H]2O[C@H]2C[C@](C)(NCc3ccc(OCc4cn(CC(=O)N[C@H](C(=O)N[C@@H](CCN)C(=O)N[C@H]5CCNC(=O)[C@H]([C@@H](C)O)NC(=O)[C@H](CCN)NC(=O)[C@H](CCN)NC(=O)[C@H](CC(C)C)NC(=O)[C@@H](CC(C)C)NC(=O)[C@H](CCN)NC5=O)[C@@H](C)O)nn4)c(OC)c3)[C@H](O)[C@H](C)O2)Oc2ccc(cc2Cl)[C@H]1O | broth microdilution | MSSA ATCC 29213, cation-adjusted Mueller-Hinton broth | 20 to 24 h, 37 °C, 0.002% polysorbate 80 | 0.25 µg/mL |
| CC[C@H]1OC(=O)[C@H](C)[C@@H](OC(=O)Cc2ccccc2Cl)[C@H](C)[C@@H](O[C@@H]2O[C@H](C)C[C@H](N(C)C)[C@H]2O)[C@](C)(OC)C[C@@H](C)C(=O)[C@H](C)[C@@H](O)[C@]1(C)O |  | BAA-977 |  | 2 µg/mL |
| CCCCCCCC(=O)N[C@@H](CC(N)=O)C(=O)N[C@H]1CNC(=O)[C@H](c2ccc(O)c(Cl)c2)NC(=O)[C@@H](C)NC(=O)[C@H](CC(C)C)NC(=O)CNC(=O)[C@H](c2ccc(O)cc2)NC(=O)[C@@H]([C@H](C)O)NC(=O)[C@H](c2ccc(O)cc2)NC(=O)[C@@H](CCCN)NC(=O)[C@H](Cc2ccccc2)NC(=O)[C@H]([C@@H](C)O)NC(=O)[C@@H](c2ccc(O)cc2)NC(=O)[C@H](c2ccc(O)cc2)NC(=O)[C@@H]([C@H](C)O)NC(=O)[C@@H](CCCN)NC(=O)[C@@H](c2ccc(O)cc2)NC1=O |  | MSSA ATCC 29213 |  | 1 µM |
| CCCCCCCCn1cc[n+](CCCCCCCCOc2cc(OCCCCCCCC[n+]3ccn(CCCCCCCC)c3)cc(OCCCCCCCC[n+]3ccn(CCCCCCCC)c3)c2)c1.[Br-].[Br-].[Br-] |  | CA-MRSA USA300-0114 |  | 1 µM |

| Compound | assay | test system | setting | MIC |
| --- | --- | --- | --- | --- |
| Cc1c(CN(C)C(=O)/C=C/c2cnc3c(c2)CC(N)C(=O)N3)oc2ccccc12 (stereo not drawn) | microbial growth, broth dilution | ATCC29213 |  | 0.03 µg/mL |
| CCCCCC[N+](C)(C)CCCCCCOc1cc(OCCCCCC[N+](C)(C)CCCCCC)cc(OCCCCCC[N+](C)(C)CCCCCC)c1.[Br-].[Br-].[Br-] |  | CA-MRSA USA300-0114 |  | 0.5 µM |
| CC[C@H]1OC(=O)[C@H](C)[C@@H](OC(=O)Cc2ccc(OC)cc2)[C@H](C)[C@@H](O[C@@H]2O[C@H](C)C[C@H](N(C)C)[C@H]2O)[C@](C)(OC)C[C@@H](C)C(=O)[C@H](C)[C@@H](O)[C@]1(C)O |  | BAA-977 |  | 8 µg/mL |
| COc1cc(C(=O)O)ccc1NC(=O)c1ccc(NC(=O)c2ccc(NC(=O)[C@H](Cc3c[nH]nn3)NC(=O)c3ccc(NC(=O)/C(C)=C/c4ccc(O)cc4)cc3)cc2)c(OC)c1O | broth microdilution | ciprofloxacin-sensitive |  | 2 µg/mL |
| CC[C@H]1OC(=O)[C@H](C)[C@@H](OC(=O)Cc2ccc(N(C)C)cc2)[C@H](C)[C@@H](O[C@@H]2O[C@H](C)C[C@H](N(C)C)[C@H]2O)[C@](C)(OC)C[C@@H](C)C(=O)[C@H](C)[C@@H](O)[C@]1(C)O |  | BAA-977 |  | 64 µg/mL |
| Oc1cccc2c1[nH]c1c(C3=CC4(O)CCC=CCCCCN5CCC3C3(CC6C=CCCCCN6C43)C5)nccc12 (single isomer, unassigned; (+)) | growth | ATCC 43300 methicillin-resistant |  | 20 µg/mL |
| CCCCCCCCCC[N+](C)(C)CCCCCCCCOc1cc(OCCCCCCCC[N+](C)(C)CCCCCCCCCC)cc(OCCCCCCCC[N+](C)(C)CCCCCCCCCC)c1.[Br-].[Br-].[Br-] |  | CA-MRSA USA300-0114 |  | 2 µM |
| COc1ccc(NC(=O)Nc2ccc(Cl)c(C(F)(F)F)c2)cc1OC | microbial growth | NCTC8325 |  | 30 µM |
| CC[C@H]1OC(=O)[C@H](C)[C@@H](OC(=O)c2ccc(N)cc2)[C@H](C)[C@@H](O[C@@H]2O[C@H](C)C[C@H](N(C)C)[C@H]2O)[C@](C)(OC)C[C@@H](C)C(=O)[C@H](C)[C@@H](O)[C@]1(C)O |  | DSM 20231 MSSA |  | > 256 µg/mL |
| COc1cccc(OC)c1C(=O)N[C@@H]1C(=O)N2[C@@H]1SC(C)(C)[C@@H]2C(=O)O | microbial growth, broth dilution | 43300 |  | 4 µM |
| CCCCCCCCCCn1cc[n+](CCCCCCCCOc2cc(OCCCCCCCC[n+]3ccn(CCCCCCCCCC)c3)cc(OCCCCCCCC[n+]3ccn(CCCCCCCCCC)c3)c2)c1.[Br-].[Br-].[Br-] |  | SH1000 MSSA |  | 2 µM |
| CC[C@H]1OC(=O)[C@H](C)[C@@H](OC(=O)Cc2ccc(C(F)(F)F)cc2)[C@H](C)[C@@H](O[C@@H]2O[C@H](C)C[C@H](N(C)C)[C@H]2O)[C@](C)(OC)C[C@@H](C)C(=O)[C@H](C)[C@@H](O)[C@]1(C)O |  | BAA-977 |  | 4 µg/mL |
| CCCCCCCC[N+](C)(C)CCCCOc1cc(OCCCC[N+](C)(C)CCCCCCCC)cc(OCCCC[N+](C)(C)CCCCCCCC)c1.[Br-].[Br-].[Br-] |  | CA-MRSA USA300-0114 |  | 0.5 µM |
| COc1cc2c(cc1OC)C1Cc3ccc(OC)c(OC)c3C[NH+]1CC2.[Cl][Fe-]([Cl])([Cl])[Cl] (stereo not drawn) |  |  | 24 h, 37 °C | > 1600 µM |
| COc1nc(C(=O)Nc2ccc(C(=O)O)nc2OC)ccc1NC(=O)c1ccc(NC(=O)[C@H](Cc2c[nH]nn2)NC(=O)c2ccc(NC(=O)/C(C)=C/c3ccc(O)cc3)cc2)cc1 | broth microdilution | ciprofloxacin-sensitive |  | 8 µg/mL |
| COc1ccc(/N=N/C(=S)N2CCCCC2)cc1 | microbial growth, broth dilution | ATCCBAA44 MRSA | 24 h | > 50 µM |

For quick reference, copied from above:
| Compound | assay | test system | setting | MIC |
| --- | --- | --- | --- | --- |
| Oc1cccc2c1[nH]c1c(C3=CC4(O)CCC=CCCCCN5CCC3C3(CC6C=CCCCCN6C43)C5)nccc12 (single isomer, unassigned; (+)) | growth | ATCC 43300 methicillin-resistant |  | 20 µg/mL |
| CCCCCCCCCC[N+](C)(C)CCCCCCCCOc1cc(OCCCCCCCC[N+](C)(C)CCCCCCCCCC)cc(OCCCCCCCC[N+](C)(C)CCCCCCCCCC)c1.[Br-].[Br-].[Br-] |  | CA-MRSA USA300-0114 |  | 2 µM |
| COc1ccc(NC(=O)Nc2ccc(Cl)c(C(F)(F)F)c2)cc1OC | microbial growth | NCTC8325 |  | 30 µM |
| CC[C@H]1OC(=O)[C@H](C)[C@@H](OC(=O)c2ccc(N)cc2)[C@H](C)[C@@H](O[C@@H]2O[C@H](C)C[C@H](N(C)C)[C@H]2O)[C@](C)(OC)C[C@@H](C)C(=O)[C@H](C)[C@@H](O)[C@]1(C)O |  | DSM 20231 MSSA |  | > 256 µg/mL |
| COc1cccc(OC)c1C(=O)N[C@@H]1C(=O)N2[C@@H]1SC(C)(C)[C@@H]2C(=O)O | microbial growth, broth dilution | 43300 |  | 4 µM |
